Measured values collected from several papers.
Compare with care: the assays were run in different laboratories.
Target: Citron Rho-interacting kinase (CIT, Homo sapiens, UniProt O14578)

SMILES	assay	setting	scale	endpoint	value
Cc1cnc2nc1Nc1cccc(c1)COC/C=C/COCc1cc(ccc1OCCN1CCOCC1)N2	cell-free assay	0.1 µM	–	remaining signal	100%
COc1cc(Nc2nc(C)cc(-c3cnn4nc(OC)ccc34)n2)cc(C(F)(F)F)c1	inhibitor	1 µM	relative to: control	remaining activity	100%
Cc1ccc(-c2c(/C=C(\C#N)C(=O)NC(C)C)n(CCCO)c3ncnc(N)c23)cc1	cell-free assay, competition with immobilised ligand	1 µM	–	remaining binding	94%
CC(C)=CC1OC(C)(C)C2C=C3C(=O)C(Cl)=CC(O)C3C3C(O)C4OC4C(=O)C132 (centres unmarked)	cell-free assay, competition with immobilised ligand	10 µM	–	remaining binding	86%
C=CC(=O)N1CCCC(n2c(=O)c3ncccc3n(Cc3ccc(Oc4ccccc4)cc3)c2=O)C1 (centres unmarked)	cell-free assay, competition with immobilised ligand	1 µM	–	remaining binding	93%
O=C(Cc1ccc(OCc2ccccc2)cc1)NC1(C(=O)O)CCN(C(=O)c2ccc(-c3cccc(Cl)c3)cc2)CC1	enzyme activity, inhibitor	10 µM	–	activity vs control	108%
CCn1cc(C(=O)O)c(=O)c2c(N)c(F)c(NC3CCCCC3)cc21	kinase activity	0.1 µM, with: ATP at Km	–	inhibition	6.4%
C=CC(=O)N1CCc2ccc(-n3c(=O)ccc4cnc5ccc(-c6cnn(C)c6)cc5c43)cc21	KINOMEscan	1 µM	relative to: DMSO control	remaining binding	89%
Nc1ncc2c(n1)-c1c([nH]c3ccc(C4=CCOCC4)cc13)CCC2	binding, competition with immobilised ligand	1 µM	–	remaining binding	100%
CCN1CCN(Cc2ccc(C(=O)Nc3ccc(C)c(NCc4cnc5[nH]ccc5c4OC)c3)cc2C(F)(F)F)CC1	binding, competition with immobilised ligand	1 µM	–	remaining binding	18%
COc1cc(Nc2nccc(-c3cnn4nc(OC)ccc34)n2)cc(C(F)(F)F)c1	binding, competition with immobilised ligand	1 µM	–	remaining binding	90%
COc1c(Cl)cccc1Nc1c(-c2ccncc2C#C[C@@]2(C)CCCN2C(=O)/C=C/CN(C)C)[nH]c2c1C(=O)NCC2	binding, competition with immobilised ligand	3 µM	–	remaining binding	0%
CNC1C[S+]2CC[S+]3CC[S+](C1)[Ru-4]321([N]=C=S)[n]2c3ccc(OC)cc3c3c4c(c5cc(F)c[n+]1c5c32)C(=O)NC4=O (centres unmarked)	KinomeScan	0.1 µM	relative to: untreated	remaining binding	92%
CNC(=O)C1CCN(c2cc(C)c(F)cc2NC(=O)c2ccc(-c3cc(O)ccc3C)c(C)c2)CC1	binding, competition with immobilised ligand	1 µM	–	remaining binding	94%
